Assay results collected from several papers.
Parts stem from different laboratories: compare values within a part only.

Set 1
Target: Sal-like protein 4, full length isoform A (SALL4, Homo sapiens, UniProt Q9UJQ4, residues 1-1053)
Chain of UniProt Q9UJQ4 (whole entry, looked up): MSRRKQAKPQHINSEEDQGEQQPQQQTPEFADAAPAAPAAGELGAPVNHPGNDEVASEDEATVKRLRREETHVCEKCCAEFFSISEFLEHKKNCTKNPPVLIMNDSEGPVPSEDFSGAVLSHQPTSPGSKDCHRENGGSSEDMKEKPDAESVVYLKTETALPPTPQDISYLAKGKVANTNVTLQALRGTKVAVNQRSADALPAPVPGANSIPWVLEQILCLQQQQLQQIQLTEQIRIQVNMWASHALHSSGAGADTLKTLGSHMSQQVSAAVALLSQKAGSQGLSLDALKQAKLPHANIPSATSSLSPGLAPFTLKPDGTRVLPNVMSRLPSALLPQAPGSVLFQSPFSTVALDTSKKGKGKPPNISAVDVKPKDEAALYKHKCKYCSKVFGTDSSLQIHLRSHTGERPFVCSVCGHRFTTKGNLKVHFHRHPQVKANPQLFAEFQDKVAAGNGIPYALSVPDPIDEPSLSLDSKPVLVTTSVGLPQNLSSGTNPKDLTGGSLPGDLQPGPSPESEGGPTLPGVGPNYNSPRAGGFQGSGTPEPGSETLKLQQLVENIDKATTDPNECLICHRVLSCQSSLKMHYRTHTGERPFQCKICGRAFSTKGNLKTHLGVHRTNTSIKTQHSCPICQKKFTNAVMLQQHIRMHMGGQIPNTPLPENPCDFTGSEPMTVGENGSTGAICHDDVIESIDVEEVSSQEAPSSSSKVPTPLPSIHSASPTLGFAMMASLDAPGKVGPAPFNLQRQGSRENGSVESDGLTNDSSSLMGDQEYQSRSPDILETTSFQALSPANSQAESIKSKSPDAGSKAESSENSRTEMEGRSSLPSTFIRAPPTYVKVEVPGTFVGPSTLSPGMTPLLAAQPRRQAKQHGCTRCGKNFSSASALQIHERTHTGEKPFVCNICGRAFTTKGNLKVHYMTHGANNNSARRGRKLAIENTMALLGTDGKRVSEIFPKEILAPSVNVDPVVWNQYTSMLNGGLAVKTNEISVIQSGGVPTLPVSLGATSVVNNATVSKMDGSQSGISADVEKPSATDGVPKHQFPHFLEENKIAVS
Technique: universal PBM
Form: double-stranded DNA, one strand shown
Matrix: in vitro
Tested at: 600 nM
Notes: 8-mer, flanks averaged, mean of replicates
Direction: higher = stronger binding
Sequence	E-score
GTCGGCAA	-0.257
CTAGCGAC	-0.0563
ACATGACC	0.0261
AAGCCACG	-0.188
CCAGAAAA	0.0775
CACTTTAA	0.212
ACGTTTCA	0.0297
ACCCGTTC	-0.1

Set 2
Target: Ras GTPase-activating protein-binding protein 1, full length (G3BP1, Homo sapiens, UniProt Q13283)
Chain of UniProt Q13283 (whole entry, looked up): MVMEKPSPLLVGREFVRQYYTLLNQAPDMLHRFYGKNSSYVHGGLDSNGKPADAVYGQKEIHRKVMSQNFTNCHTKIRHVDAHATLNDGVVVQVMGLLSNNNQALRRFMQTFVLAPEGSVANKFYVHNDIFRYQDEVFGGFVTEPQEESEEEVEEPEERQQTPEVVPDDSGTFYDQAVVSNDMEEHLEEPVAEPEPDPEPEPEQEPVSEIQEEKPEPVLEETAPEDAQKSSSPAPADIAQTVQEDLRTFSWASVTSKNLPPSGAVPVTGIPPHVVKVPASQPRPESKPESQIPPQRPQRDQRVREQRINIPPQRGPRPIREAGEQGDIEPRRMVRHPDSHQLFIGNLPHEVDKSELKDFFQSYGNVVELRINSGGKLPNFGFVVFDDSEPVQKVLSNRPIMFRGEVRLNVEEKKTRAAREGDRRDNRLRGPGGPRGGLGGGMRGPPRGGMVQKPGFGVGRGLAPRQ
Technique: RNA Bind-n-Seq
Form: RNA
Matrix: in vitro
Tested at: 200 nM
Notes: whole 134-nt RNA, ends assumed
Together with: 150 mM LiCl
Baseline: input library
Direction: higher = stronger binding
All molecules: 7-deaza-guanosine replaces G
Constant ends, left off below: GGGAGUUCUACAGUCCGACGAUC … UGGAAUUCUCGGGUGUCAAGG
Sequence	log2 enrichment
GUCCUGUGCUACACAUCGUAUGUACCGAAUCGGGGAAAAAGGGGAAAGGGGUUUGGGGAAAGUAUUAUGUUACGCCGUUCGGAUCUGCAC	-0.586
UAACUUUAGAGGAGGAUCUGAUGGAUAUGGCAGUGGACGUGGAUUUGGGGAUGGCUAUAAUGGGUAUGGAGGAGGUCCUGGAGGUGGCAA	0.184
AGUCCUGUGCUACACAUCGUAUGUACCGAAUCGGAAAAGGGGAAAAGGGGAAAAGGGAAAGUAUUAUGUUACGCCGUUCGGAUCUGCACU	-0.564
CACAGACAACACGCACCCACACAGACACAGAGGGAAGGGGUUGGGAUGGGGACAGGGUGCACAGGAGGGCGGGGUAGGACCCCAGCCCCU	-0.948
UAACUUUAGAGGAGGAUCUGAUGGAUAUGGCAGUGGACGUUGAUUUGGGGAUGGCUAUAAUGGGUAUGGAGGAGGACCUGGAGGUGGCAA	0.0321
CCUGUGCUACACAUCGUAUGUACCGAAUCGGGUUUUUGGGUUUUUUUGGGUUUUUUUGGGAAAGUAUUAUGUUACGCCGUUCGGAUCUGC	-0.0224
GCCACUGUUCACCAGUCCUACCCACACCAUGCCACACAGCUCCAUGCCCACCAGCCGCAGCCGGCUACCACGCCUACUGGAAGCCAGCCG	-0.0396
GCAGGAAGUAGAAACAAAUGGAAAUGCUUCGGAUAGUGGCAGGGGUGGGGGUUGCUAAGGAAAGGGUGGGAUGGGAGUGGGUAAAGAGUU	0.0115

Set 3
Target: RNA binding protein fox-1 homolog 2, RRM domain, GST-SBP tag (RBFOX2, Homo sapiens, UniProt O43251-10, residues 100-194)
Technique: RNA Bind-n-Seq
Form: RNA
Matrix: in vitro
Tested at: 365 nM
Notes: natural RNA segment, single round, ends assumed
Baseline: no-protein control
Direction: higher = stronger binding
Constant ends, left off below: GGGAGUUCUACAGUCCGACGAUC … UGGAAUUCUCGGGUGCCAA
Residues (chain): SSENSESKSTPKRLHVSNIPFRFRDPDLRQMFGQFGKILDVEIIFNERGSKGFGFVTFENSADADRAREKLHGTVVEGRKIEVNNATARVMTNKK
Sequence	RBNS enrichment (R)
AGAAAUCAGCCUGAGGCUGUCUUCACAGGCAGACAUCUAUCCUGCUUCCUCUUCCGGGGCUUCUGGGUGGGCAAACAAGGAAUAAAGGUGAUUCUUGGCUGUGGCCCACU	0.373
AUCCUCCUUGGUAUCAUGAAACUGGAGCAGAGGAAUUGCAAUUUAGCAGGAGGUCCUCUACUGGUGAUACCCUCACCUUGGGGUAAUGGUCCUAACCCAGACCCAGGGUC	0.237
AAGAACUAAAUAUGAGUACAUAAAAUUCUAUCUUUGAUAAAUUUUAUUUUUAUGCCCUACUUAAUAUUUGCAUCAGUAUAAUAUAUAUCAGUGAGUCUUACAGAAAGAUA	0.586
GACUGCAGGCUCAUGAGCAGCGUCAAAGACAAUGUGGGCCGUGGCCUGAACAUCGCCCUGGUGAAUGGGGUCAGUGGUGAGCUCCUAGAAGCCAGAGCCUUUGACAUGUG	1.24
AUUUCCCAUUCCAAAAACUGGCUAGACAAAGGACAAGGAACGGUCAAGAACAGCUCUCCAUGGCUUUGCCUUGACUGUUGUUCCUCCCUUUGCCUUUCCCGCUCCCACUA	0.241
AGAUCAAAAUUUUACACUAGCUUAUUAGAGCCCUAUUAGUUCCUGUCCCAAGUUCUUCAGUUACAACCUAGUAGUAUACUUACUCUUCCAACUGUCCUAAGGUCACUUCC	0.598

Other studies, line by line
Substance	target	test	test system	conditions	scale	endpoint	value
PhoQ, residues 284 288 289 292 302 303 SSTLSG	PhoP, residues 12 14 15 18 19 SEGLL (Escherichia coli, UniProt P23836)	Sort-seq, refers to: YFP reporter	E. coli	PhoQ-PhoP variant library, together with: 10 µM Mg2+	baseline: high Mg2+ state, higher = stronger signaling	fold induction	10.2

Excerpt of the above (set 3):
Sequence	RBNS enrichment (R)
AGAAAUCAGCCUGAGGCUGUCUUCACAGGCAGACAUCUAUCCUGCUUCCUCUUCCGGGGCUUCUGGGUGGGCAAACAAGGAAUAAAGGUGAUUCUUGGCUGUGGCCCACU	0.373
AUCCUCCUUGGUAUCAUGAAACUGGAGCAGAGGAAUUGCAAUUUAGCAGGAGGUCCUCUACUGGUGAUACCCUCACCUUGGGGUAAUGGUCCUAACCCAGACCCAGGGUC	0.237
AAGAACUAAAUAUGAGUACAUAAAAUUCUAUCUUUGAUAAAUUUUAUUUUUAUGCCCUACUUAAUAUUUGCAUCAGUAUAAUAUAUAUCAGUGAGUCUUACAGAAAGAUA	0.586
